{"data": "Published values gathered from unrelated publications", "note": "Each numbered part is a random draw from the data of one study; scales do not carry over between parts. Positions count from the first letter of the parent shown."}
{"data": "Set 1", "target": "Max-binding protein MNT, bHLH-zipper, MAX partner unstated (MNT, Homo sapiens, UniProt Q99583, residues 220-300)", "method": "protein-binding microarray", "form": "double-stranded DNA, one strand shown", "medium": "in vitro", "tested at": "not given", "setting": "k-mer, scored over probes, only values ≥0.25", "direction": "higher = stronger binding", "Residues (chain)": "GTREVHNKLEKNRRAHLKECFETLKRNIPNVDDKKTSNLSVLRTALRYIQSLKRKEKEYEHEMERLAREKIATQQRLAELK"}
{"Sequence": "CCACATGC", "E-score": 0.454}
{"Sequence": "CCACGCTA", "E-score": 0.354}
{"Sequence": "GTGTGAAC", "E-score": 0.283}
{"Sequence": "AATGCATG", "E-score": 0.324}
{"Sequence": "ATGTCATG", "E-score": 0.272}
{"Sequence": "ACAACATG", "E-score": 0.329}
{"Sequence": "ACGTTCCA", "E-score": 0.301}
{"Sequence": "CCTACACG", "E-score": 0.306}
{"data": "Set 2", "target": "CCNF, cyclin fold, Cln2 fusion (human)", "method": "yeast growth competition, sequencing", "medium": "yeast", "setting": "strong parent motif", "baseline": "not given", "direction": "higher = stronger binding", "starting sequence": "CDC6 docking peptide (human); TLKGRRLVFDNQL"}
{"Variant": "K3F", "normalised enrichment score": 8.09}
{"Variant": "D10W", "normalised enrichment score": 8.19}
{"Variant": "L2R", "normalised enrichment score": 8.53}
{"Variant": "Q12C", "normalised enrichment score": 8.7}
{"data": "Set 3", "target": "Histone acetyltransferase KAT6A, winged helix 2, GST fusion (KAT6A, Homo sapiens, UniProt Q92794, residues 85-181)", "method": "protein binding microarray", "form": "double-stranded DNA, one strand shown", "medium": "in vitro", "tested at": "not given", "setting": "8-mer, flanks averaged, mean of 2 arrays, mostly near background", "baseline": "not given", "direction": "higher = stronger binding", "Residues (chain)": "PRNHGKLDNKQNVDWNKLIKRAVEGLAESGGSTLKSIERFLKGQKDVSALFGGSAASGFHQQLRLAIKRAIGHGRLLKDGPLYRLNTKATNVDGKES"}
{"Sequence": "AGGCCCAA", "E-score": -0.0653}
{"Sequence": "GTCCTCGA", "E-score": -0.0947}
{"Sequence": "GTACCCGA", "E-score": -0.121}
{"Sequence": "TAACGGCA", "E-score": -0.0483}
{"Sequence": "CATACATG", "E-score": -0.0651}
{"Sequence": "CAGCCCAA", "E-score": 0.0227}
{"Sequence": "GCATTGCC", "E-score": -0.0107}
{"Sequence": "ACATTGGC", "E-score": -0.142}
{"data": "Further values, each from its own experiment"}
{"Substance": "PhoQ, residues 284 288 289 292 302 303 ASVMEA", "target": "PhoP, residues 12 14 15 18 19 AGCRL (Escherichia coli, UniProt P23836)", "assay": "Sort-seq, refers to: YFP reporter", "system": "E. coli", "conditions": "PhoQ-PhoP variant library, with: 10 µM Mg2+", "how to read": "baseline: high Mg2+ state, higher = stronger signaling", "quantity": "fold induction", "value": 11.2}
{"note": "A few entries again (set 2):"}
{"Variant": "K3F", "normalised enrichment score": 8.09}
{"Variant": "L2R", "normalised enrichment score": 8.53}
